Experimental data gathered from unrelated publications.
A part holds a random share of what one study measured.

Set 1 — technique: protein-binding microarray; form: double-stranded DNA, one strand shown; medium: in vitro; tested at: 0.8 µM; notes: whole 60-bp probe, no competitor; direction: higher = stronger binding; measurement: fluorescence intensity; all sequences stand within: … GTCTTGATTCGCTTGACGCTGCTG
Target: Centromere-binding protein 1, full length, N-terminal tag (CBF1, Saccharomyces cerevisiae, UniProt P17106, residues 1-351)
Chain of UniProt P17106 (whole entry, looked up): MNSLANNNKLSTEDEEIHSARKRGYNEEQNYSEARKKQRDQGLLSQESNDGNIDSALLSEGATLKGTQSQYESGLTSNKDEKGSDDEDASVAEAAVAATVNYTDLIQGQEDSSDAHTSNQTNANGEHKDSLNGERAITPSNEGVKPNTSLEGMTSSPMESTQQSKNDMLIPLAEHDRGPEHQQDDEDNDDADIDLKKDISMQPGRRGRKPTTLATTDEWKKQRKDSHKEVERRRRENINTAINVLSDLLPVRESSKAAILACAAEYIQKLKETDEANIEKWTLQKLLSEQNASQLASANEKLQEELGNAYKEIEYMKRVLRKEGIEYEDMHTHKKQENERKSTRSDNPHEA
CTATATTTACGTGTGTACGTGCATGCACGCAAGTTC: 653 a.u.
CTAGAACACATATCTCACGCTGATAACACCCTATTC: 547 a.u.
GAATTCTTTTCGGGTGATGTCACTTAAAAACTCTAG: 528 a.u.
CCTAACTACTATAGTCATGCGTAATAGCTTCGTACA: 604 a.u.
GAACAGCCATGGCATCATGCGCTACCGCCGGATTAG: 504 a.u.
GAATATCAGGCGGGTCACCTTTAGAAGGAACAATAG: 552 a.u.

Set 2 — technique: universal PBM; form: double-stranded DNA, one strand shown; medium: in vitro; tested at: not given; direction: higher = stronger binding; measurement: E-score
Target: Sal-like protein 4, full length isoform B (SALL4, Homo sapiens, UniProt Q9UJQ4-2, residues 1-616)
Notes: 8-mer, flanks averaged, mean of replicates
Residues (chain): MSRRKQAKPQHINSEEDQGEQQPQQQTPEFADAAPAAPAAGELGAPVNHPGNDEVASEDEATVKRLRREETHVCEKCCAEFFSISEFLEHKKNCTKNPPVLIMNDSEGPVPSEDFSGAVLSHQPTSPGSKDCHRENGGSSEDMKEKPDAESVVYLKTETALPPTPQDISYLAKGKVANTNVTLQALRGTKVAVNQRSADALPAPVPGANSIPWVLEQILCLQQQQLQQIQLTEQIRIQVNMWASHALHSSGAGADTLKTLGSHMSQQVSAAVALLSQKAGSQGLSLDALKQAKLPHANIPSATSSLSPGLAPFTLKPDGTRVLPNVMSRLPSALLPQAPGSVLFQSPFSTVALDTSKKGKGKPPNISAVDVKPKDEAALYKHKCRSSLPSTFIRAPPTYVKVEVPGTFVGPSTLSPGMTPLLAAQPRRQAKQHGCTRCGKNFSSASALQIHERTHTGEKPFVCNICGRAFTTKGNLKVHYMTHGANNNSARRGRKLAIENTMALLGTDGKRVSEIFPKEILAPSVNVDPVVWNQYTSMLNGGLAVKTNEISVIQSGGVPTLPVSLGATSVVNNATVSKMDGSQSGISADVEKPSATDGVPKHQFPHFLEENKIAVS
ATTTGATC: -0.0485
AGCATTGA: 0.0248
GAGCCGCC: -0.338
CGCTGGGA: -0.284
ACGTGTAT: 0.174
AAGTCTGG: -0.168
AGCAAGGA: -0.0857
ACGTAATC: 0.16
ACTGAAAA: 0.255

Set 3 — technique: protein binding microarray; form: double-stranded DNA, one strand shown; medium: in vitro; tested at: not given; baseline: not given; direction: higher = stronger binding; measurement: E-score
Target: Histone acetyltransferase KAT6A, both winged helices, GST fusion (KAT6A, Homo sapiens, UniProt Q92794, residues 1-181)
Notes: 8-mer, flanks averaged, mean of 2 arrays, mostly near background
Construct (chain): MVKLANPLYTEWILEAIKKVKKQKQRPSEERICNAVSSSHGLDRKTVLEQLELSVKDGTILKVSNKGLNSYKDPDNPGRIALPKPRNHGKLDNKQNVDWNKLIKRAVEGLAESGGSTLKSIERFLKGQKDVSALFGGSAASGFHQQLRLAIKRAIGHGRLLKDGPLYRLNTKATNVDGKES
TATGAGCA: -0.123
AACTTAAC: 0.0271
ACTGACAA: 0.0138
ACTTGTAC: -0.0561
AATTTGCG: 0.0403
ATCACCTA: -0.258
ATTCGCAA: -0.0196
GTTGCGCA: 0.158
GTCCTCAA: -0.0962
AGAGCAGC: -0.0715

Single results of other studies
PhoQ, residues 284 288 289 292 302 303 ALSMDL — fold induction (PhoP, residues 12 14 15 18 19 TQAIL (Escherichia coli, UniProt P23836); Sort-seq, refers to: YFP reporter; E. coli; PhoQ-PhoP variant library, added: 10 µM Mg2+; baseline: high Mg2+ state, higher = stronger signaling): 9.08
